Measurements of several laboratories.
Compare with care: the assays were run in different laboratories. ± marks the error that the study gave.
MTAP: S-methyl-5'-thioadenosine phosphorylase (MTAP, Homo sapiens, UniProt Q13126)
Chain of UniProt Q13126 (whole entry, looked up): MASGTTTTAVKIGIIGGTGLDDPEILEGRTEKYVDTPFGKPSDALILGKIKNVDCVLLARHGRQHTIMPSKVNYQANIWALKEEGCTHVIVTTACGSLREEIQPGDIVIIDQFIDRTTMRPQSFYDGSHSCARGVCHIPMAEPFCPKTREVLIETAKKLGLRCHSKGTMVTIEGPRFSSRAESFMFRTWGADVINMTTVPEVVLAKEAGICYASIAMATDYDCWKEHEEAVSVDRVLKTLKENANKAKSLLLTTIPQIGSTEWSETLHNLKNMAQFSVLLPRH
B1: Pcf11 CID D117K; chain DTEVIVKDFNSILEELTFNSRPIITTLTKLAEENISCAQYFVDAIESRIEKCMPKQKLYAFYALDSICKNVGSPYTIYFSRNLFNLYKRTYLLVDNTTRTKLINMFKLWLNPNKTGLPLFEGSALEKIEQFLIKAS
B2: α-TTP F169D; sequence looked up; chain MAEARSQPSAGPQLNALPDHSPLLQPGLAALRRRAREAGVPLAPLPLTDSFLLRFLRARDFDLDLAWRLLKNYYKWRAECPEISADLHPRSIIGLLKAGYHGVLRSRDPTGSKVLIYRIAHWDPKVFTAYDVFRVSLITSELIVQEVETQRNGIKAIFDLEGWQFSHADQITPSVAKKIAAVLTDSFPLKVRGIHLINEPVIFHAVFSMIKPFLTEKIKERIHMHGNNYKQSLLQHFPDILPLEYGGEEFSMEDICQEWTNFIMKSEDYLSSISESIQ
B3: Rad9 754–931 (S. cerevisiae); sequence looked up; chain GKDSKEQSYVFPEGIRTADNSFLSKDDIIFGNAVWCQYTWNYKFYPGILLEVDTNQDGCWIYFETGRSLTKDEDIYYLDIRIGDAVTFDGNEYVVVGLECRSHDLNIIRCIRGYDTVHLKKKNASGLLGKRTLIKALSSISLDLSEWAKRAKIILEDNEKNKGDAYRYLRHPIRGRKS
Chain of UniProt Q38830 (whole entry, looked up): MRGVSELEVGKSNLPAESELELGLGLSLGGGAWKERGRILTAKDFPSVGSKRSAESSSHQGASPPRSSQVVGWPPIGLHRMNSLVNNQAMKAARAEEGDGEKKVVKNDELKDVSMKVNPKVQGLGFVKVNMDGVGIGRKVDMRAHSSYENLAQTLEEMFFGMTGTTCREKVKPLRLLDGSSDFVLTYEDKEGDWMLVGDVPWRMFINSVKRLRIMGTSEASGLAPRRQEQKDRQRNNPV
Chain of UniProt Q570C0 (whole entry, looked up): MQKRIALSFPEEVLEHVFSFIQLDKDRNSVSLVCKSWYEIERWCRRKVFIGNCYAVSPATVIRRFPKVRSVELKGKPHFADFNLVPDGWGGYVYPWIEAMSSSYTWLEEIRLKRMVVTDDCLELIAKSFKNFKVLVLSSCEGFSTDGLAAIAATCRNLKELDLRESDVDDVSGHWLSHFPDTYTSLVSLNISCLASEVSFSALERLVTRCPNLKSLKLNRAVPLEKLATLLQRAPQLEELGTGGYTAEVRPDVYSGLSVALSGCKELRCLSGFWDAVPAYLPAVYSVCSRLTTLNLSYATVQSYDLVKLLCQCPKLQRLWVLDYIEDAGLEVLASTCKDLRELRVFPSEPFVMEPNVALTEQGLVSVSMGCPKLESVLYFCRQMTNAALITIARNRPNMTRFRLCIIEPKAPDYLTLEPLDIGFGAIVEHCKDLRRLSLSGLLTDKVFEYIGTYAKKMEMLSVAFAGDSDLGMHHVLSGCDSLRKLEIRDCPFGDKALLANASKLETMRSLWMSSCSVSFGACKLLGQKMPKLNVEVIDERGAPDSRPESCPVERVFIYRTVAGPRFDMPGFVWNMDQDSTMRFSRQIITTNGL
Chain of UniProt P00760 (whole entry, looked up): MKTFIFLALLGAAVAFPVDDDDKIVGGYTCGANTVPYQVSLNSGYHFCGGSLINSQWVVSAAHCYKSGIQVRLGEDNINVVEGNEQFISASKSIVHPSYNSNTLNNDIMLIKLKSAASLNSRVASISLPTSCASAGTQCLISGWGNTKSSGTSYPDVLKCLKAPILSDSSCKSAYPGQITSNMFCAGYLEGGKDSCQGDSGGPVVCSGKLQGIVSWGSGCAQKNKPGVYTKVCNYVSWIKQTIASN
Chain of UniProt P00520 (whole entry, looked up): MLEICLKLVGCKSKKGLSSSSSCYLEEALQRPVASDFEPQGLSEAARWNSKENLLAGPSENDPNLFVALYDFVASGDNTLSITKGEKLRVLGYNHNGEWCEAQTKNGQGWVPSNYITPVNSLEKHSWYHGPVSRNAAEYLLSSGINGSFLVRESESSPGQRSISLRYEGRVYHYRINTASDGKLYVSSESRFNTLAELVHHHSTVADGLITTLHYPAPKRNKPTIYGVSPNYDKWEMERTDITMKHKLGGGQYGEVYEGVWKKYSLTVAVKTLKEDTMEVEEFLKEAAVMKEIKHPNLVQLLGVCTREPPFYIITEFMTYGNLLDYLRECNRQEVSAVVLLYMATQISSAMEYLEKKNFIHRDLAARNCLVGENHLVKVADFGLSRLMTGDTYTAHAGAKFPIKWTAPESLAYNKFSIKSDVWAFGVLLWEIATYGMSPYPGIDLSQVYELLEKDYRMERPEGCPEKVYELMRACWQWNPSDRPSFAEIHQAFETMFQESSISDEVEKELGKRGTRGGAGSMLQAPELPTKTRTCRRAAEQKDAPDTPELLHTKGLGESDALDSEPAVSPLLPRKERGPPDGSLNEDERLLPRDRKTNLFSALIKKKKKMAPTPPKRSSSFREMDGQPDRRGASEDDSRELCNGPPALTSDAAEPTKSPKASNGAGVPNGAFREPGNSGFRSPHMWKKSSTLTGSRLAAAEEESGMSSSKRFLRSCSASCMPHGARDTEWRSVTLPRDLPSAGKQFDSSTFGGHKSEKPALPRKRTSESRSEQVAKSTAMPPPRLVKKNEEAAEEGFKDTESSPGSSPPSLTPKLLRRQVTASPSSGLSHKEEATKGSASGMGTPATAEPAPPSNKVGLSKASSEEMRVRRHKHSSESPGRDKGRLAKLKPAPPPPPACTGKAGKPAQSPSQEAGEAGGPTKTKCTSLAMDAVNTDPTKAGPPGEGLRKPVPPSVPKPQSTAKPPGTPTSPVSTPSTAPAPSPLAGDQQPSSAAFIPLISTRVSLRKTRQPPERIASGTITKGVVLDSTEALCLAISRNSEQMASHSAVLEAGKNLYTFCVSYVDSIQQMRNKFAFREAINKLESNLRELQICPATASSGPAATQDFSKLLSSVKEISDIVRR
Chain of UniProt Q06393 (whole entry, unmodified, looked up): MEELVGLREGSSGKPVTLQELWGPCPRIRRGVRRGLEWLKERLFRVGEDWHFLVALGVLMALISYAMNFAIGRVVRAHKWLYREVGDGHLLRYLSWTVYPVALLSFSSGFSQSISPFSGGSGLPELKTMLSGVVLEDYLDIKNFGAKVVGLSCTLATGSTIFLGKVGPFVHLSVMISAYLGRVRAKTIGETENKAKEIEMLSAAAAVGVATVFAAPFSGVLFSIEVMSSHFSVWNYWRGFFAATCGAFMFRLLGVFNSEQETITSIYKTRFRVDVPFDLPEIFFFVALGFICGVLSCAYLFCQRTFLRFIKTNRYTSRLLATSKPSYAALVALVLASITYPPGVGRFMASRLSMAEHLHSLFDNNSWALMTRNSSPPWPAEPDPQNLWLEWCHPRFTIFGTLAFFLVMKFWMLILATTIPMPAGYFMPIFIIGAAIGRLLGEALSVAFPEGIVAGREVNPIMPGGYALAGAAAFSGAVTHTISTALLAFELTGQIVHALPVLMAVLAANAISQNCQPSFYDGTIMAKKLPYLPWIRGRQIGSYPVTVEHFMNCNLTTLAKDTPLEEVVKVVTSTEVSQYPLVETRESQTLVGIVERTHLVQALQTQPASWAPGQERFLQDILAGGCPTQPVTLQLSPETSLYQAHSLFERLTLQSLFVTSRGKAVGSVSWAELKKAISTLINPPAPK
Chain of UniProt Q15126 (whole entry, looked up): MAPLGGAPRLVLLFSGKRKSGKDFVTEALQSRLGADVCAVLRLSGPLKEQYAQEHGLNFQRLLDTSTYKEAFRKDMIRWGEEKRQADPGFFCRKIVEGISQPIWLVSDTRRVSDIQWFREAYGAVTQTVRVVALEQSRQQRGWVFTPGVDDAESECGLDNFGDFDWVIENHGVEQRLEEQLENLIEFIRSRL

| Substance | target | assay | test system | conditions | Kd [µM] |
| --- | --- | --- | --- | --- | --- |
| C[C@@](O)(CCOP(=O)(O)O)CC(=O)O | PMVK (Homo sapiens, UniProt Q15126) | binding |  | pH 6.5, 25 °C, ternary complex formation, together with: saturating Mg-ADP | < 20 |
| B1 (Pcf11 CID D117K) | Saccharomyces cerevisiae CTD-binding protein | fluorescence anisotropy competition |  | pH 7.4, first binding event, together with: four-heptad Ser2P CTD peptide | 30 |
| C[n+]1cccc2cc(C=NNC(=O)c3ccc4ccc5ccc(C(=O)NN=Cc6ccc7c(ccc[n+]7C)c6)nc5c4n3)ccc21 | telomeric antiparallel G4 DNA | binding, native ESI-MS | 100 mM trimethylammonium acetate | 1 mM KCl | 0.054 |
| NCc1cccc(N2CCCC2)c1 | Serine protease 1 (PRSS1, Bos taurus, UniProt P00760) | binding, ITC |  | pH 8 | 181 |
| O=C(O)c1cccnc1Nc1cccc(C(F)(F)F)c1 | Chloride channel protein ClC-Ka (Clcnka, Rattus norvegicus, UniProt Q06393, F256A) | chloride current, blocker, voltage clamp | Xenopus oocytes | without barttin | ~33 |
| COCCOCCOCCOC(=O)c1ccc(-c2cc3ncc4[nH]c(=O)n([C@H](C)c5ccccn5)c4c3cc2OC)cc1 | Bromodomain factor 2 (Trypanosoma brucei brucei, UniProt Q38AM1) | ITC |  | 15 °C | 66 ± 11 |
| B2 (α-TTP F169D) | alpha-tocopherol transfer protein variants | binding, fluorescence titration |  | together with: NBD-Toc | 0.079 |
| O=C(O)Cc1c[nH]c2ccccc12 | IAA12/TIR1 (Arabidopsis thaliana, UniProt Q38830+Q570C0) | binding, radioligand saturation binding |  |  | 0.27 ± 0.0541 |
| CCCC(=O)OCC(COP(=O)(O)OC1C(O)C(O)C(OP(=O)(O)O)C(OP(=O)(O)O)C1O)OC(=O)CCC (stereo not drawn) | Tyrosine-protein kinase ABL1, SH2 domain (Abl1, Mus musculus, UniProt P00520) | HSQC NMR titration |  | SH2 domain, no KCl | 260 ± 22 |
| Nc1ncnc2nc[nH]c12 | MTAP | binding, isothermal titration calorimetry |  | second site of three sequential | 2.1 ± 0.08 |
| CSC[C@H]1CN(Cc2c[nH]c3c(N)ncnc23)C[C@@H]1O | MTAP | isothermal titration calorimetry |  | pH 7.4, 25 °C, apo enzyme, second site set | 0.11 ± 0.0275 |
| B3 (Rad9 754–931) | single-stranded DNA 35 nt | binding, EMSA |  | 2 h, pH 8.0, 22 °C | 5.02 ± 0.67 |

Excerpt of the above:
| Substance | target | assay | test system | conditions | Kd [µM] |
| --- | --- | --- | --- | --- | --- |
| O=C(O)Cc1c[nH]c2ccccc12 | IAA12/TIR1 (Arabidopsis thaliana, UniProt Q38830+Q570C0) | binding, radioligand saturation binding |  |  | 0.27 ± 0.0541 |
